Experimental data collected from several papers.
Compare with care: the assays were run in different laboratories. Several values in a cell are separate wells, animals, samples, runs or records.

`Cc1cnc2nc1Nc1cccc(c1)COC/C=C/COCc1cc(ccc1OCCN1CCOCC1)N2` has a remaining binding of 74% and 100% (ABL1 (Homo sapiens, UniProt P00519, T315I); 0.1 µM; relative to: DMSO control).
`COc1cc(Nc2nccc(-c3cnn4nc(OC)ccc34)n2)cc(C(F)(F)F)c1` has a remaining binding of 100% (Tyrosine-protein kinase ABL1, phosphorylated (ABL1, Homo sapiens, UniProt P00519, T315I); binding; 1 µM).
`CNC(=O)C1CCN(c2cc(C)c(F)cc2NC(=O)c2ccc(-c3cc(O)ccc3C)c(C)c2)CC1` gave a remaining binding of 17% (Tyrosine-protein kinase ABL1, phosphorylated (ABL1, Homo sapiens, UniProt P00519, M351T); binding, competition with immobilised ligand; 1 µM).
With `C=CC(=O)N1CCc2ccc(-n3c(=O)ccc4cnc5ccc(-c6cnn(C)c6)cc5c43)cc21` the remaining binding was 83% (Tyrosine-protein kinase ABL1, non-phosphorylated (ABL1, Homo sapiens, UniProt P00519, H396P); KINOMEscan, measured: (H396P)-nonphosphorylated; 1 µM; relative to: control).
With `CC(C)=CC1OC(C)(C)C2C=C3C(=O)C(Cl)=CC(O)C3C3C(O)C4OC4C(=O)C132` (stereo not drawn) the remaining binding was 87% (Tyrosine-protein kinase ABL1, non-phosphorylated (ABL1, Homo sapiens, UniProt P00519, T315I); cell-free assay, competition with immobilised ligand; 10 µM).
`CCN1CCN(Cc2ccc(C(=O)Nc3ccc(C)c(NCc4cnc5[nH]ccc5c4OC)c3)cc2C(F)(F)F)CC1` gave a remaining binding of 2.4% (Tyrosine-protein kinase ABL1, non-phosphorylated (ABL1, Homo sapiens, UniProt P00519, F317I); binding, competition with immobilised ligand; 1 µM).
`Cc1ccc(-c2c(/C=C(\C#N)C(=O)NC(C)C)n(CCCO)c3ncnc(N)c23)cc1` has a remaining binding of 100% (Tyrosine-protein kinase ABL1, phosphorylated (ABL1, Homo sapiens, UniProt P00519, Y253F); binding, competition with immobilised ligand; 1 µM).
The remaining binding of `CNC1C[S+]2CC[S+]3CC[S+](C1)[Ru-4]321([N]=C=S)[n]2c3ccc(OC)cc3c3c4c(c5cc(F)c[n+]1c5c32)C(=O)NC4=O` (stereo not drawn) is reported as 100% (Tyrosine-protein kinase ABL1, phosphorylated (ABL1, Homo sapiens, UniProt P00519, F317L); KinomeScan; 0.1 µM; relative to: untreated).
For `Nc1ncc2c(n1)-c1c([nH]c3ccc(C4=CCOCC4)cc13)CCC2`, the remaining binding was 100% (Tyrosine-protein kinase ABL1, phosphorylated (ABL1, Homo sapiens, UniProt P00519); binding, competition with immobilised ligand; 1 µM).

Some of these lines once more:
With `CC(C)=CC1OC(C)(C)C2C=C3C(=O)C(Cl)=CC(O)C3C3C(O)C4OC4C(=O)C132` (stereo not drawn) the remaining binding was 87% (Tyrosine-protein kinase ABL1, non-phosphorylated (ABL1, Homo sapiens, UniProt P00519, T315I); cell-free assay, competition with immobilised ligand; 10 µM).
